Measured values pooled from the literature.
Parts stem from different laboratories: compare values within a part only. Several values in a cell are separate wells, animals, samples, runs or records. ± marks the error that the study gave.
UniProt P41143, sequence (whole entry, looked up): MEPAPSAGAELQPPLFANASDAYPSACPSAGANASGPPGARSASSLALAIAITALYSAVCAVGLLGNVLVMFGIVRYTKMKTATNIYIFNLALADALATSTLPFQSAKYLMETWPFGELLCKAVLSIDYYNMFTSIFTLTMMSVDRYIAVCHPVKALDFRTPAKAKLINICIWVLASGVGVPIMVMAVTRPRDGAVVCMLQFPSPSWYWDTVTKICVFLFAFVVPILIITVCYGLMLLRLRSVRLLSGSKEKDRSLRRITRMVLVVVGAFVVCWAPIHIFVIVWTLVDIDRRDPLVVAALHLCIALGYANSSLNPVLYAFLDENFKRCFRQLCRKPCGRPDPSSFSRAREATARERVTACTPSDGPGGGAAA

Sample 1
Cell line: HEK-293T
Observed: pseudovirus infection
Technique: FDA-approved drug library counter-screen
Organism: VSV pseudotyped with VSV-G
Tested at: 10 µM
Time: 16 h
Reference: vehicle-treated
`CCOC(=O)C(C)(C)Oc1ccc(Cl)cc1` has a GFP-positive cells of 117%.
The GFP-positive cells of `O=C1C(CC[S+]([O-])c2ccccc2)C(=O)N(c2ccccc2)N1c1ccccc1` (centres unmarked) is reported as 118%.
The GFP-positive cells of `COc1ccccc1OCC(O)COC(N)=O` (centres unmarked) is reported as 109%.
The GFP-positive cells of `CN(C)CC/C=C1/c2ccccc2Sc2ccc(Cl)cc21` is reported as 110%.

Other studies, line by line
`CCOc1cc(=O)n2c(c1C(=O)N1CCC3(CC1)OCCO3)CCCCC2` gave a remaining compound of 91.5% (human, microsomes or S9; 2 µM, 0.5 h).
The body weight of `CN(N=O)C(=O)N[C@@H]1[C@@H](O)[C@H](O)[C@@H](CO)O[C@@H]1O` is reported as 37.2 g and 35.7 g and 32.9 g and 39.2 g and 33.9 g (mice, STZ diabetic neuropathy; dose not given, 3 days after STZ).
The remaining compound of `CCC1C(c2ccccc2)NC(c2ccccc2)CC1(O)c1ccc(F)cc1` (centres unmarked) is reported as 83.9% (human, microsomes or S9; 2 µM, 0.5 h).
`CCN(CC)C(=O)c1ccc(C2=CC3(CCNCC3)Oc3cccc(O)c32)cc1` gave an Emax of 114 ± 3% (Delta-type opioid receptor, with Gi1 (OPRD1, Homo sapiens, UniProt P41143); human cells).

Excerpt of the above (sample 1):
The GFP-positive cells of `CN(C)CC/C=C1/c2ccccc2Sc2ccc(Cl)cc21` is reported as 110%.
